Measured values gathered from unrelated publications.
A part holds a random share of what one study measured. Changes are numbered by the printed parent chain.

Series 1 — technique: aptamer microarray, sandwich; form: DNA with 2'F-ANA; sample: in vitro; tested at: 200 nM; together with: Cy3 exosite-II aptamer, 400 nM; reading: higher = stronger binding; measurement: mean fluorescence intensity; strand: GGTTGGTGTGGTTGG
Target: Prothrombin, mature alpha-thrombin (F2, Homo sapiens, UniProt P00734)
Notes: whole 15-mer aptamer, many near background
2'F-ANA at 6 7 9 10 11 12 13: 194 a.u.
2'F-ANA at 2 3 6 7 8 9 10 12 14: 261 a.u.
2'F-ANA at 7 8 10 11 12 13 15: 199 a.u.
2'F-ANA at 3 5 6 8 9 10 11 12 14 15: 77.4 a.u.
2'F-ANA at 2 3 10 11 14 15: 238 a.u.
2'F-ANA at 2 3 5 7 8 9 11 12 14: 59.8 a.u.
2'F-ANA at 1 2 3 4 7 10 11 12 13 14 15: 53.4 a.u.
2'F-ANA at 1 3 6 11 12 13 14 15: 89.1 a.u.
2'F-ANA at 1 2 4 5 7 8 10 12 14: 49.2 a.u.
2'F-ANA at 1 2 3 4 5 9 10 12: 61.6 a.u.
2'F-ANA at 1 3 7 9 10 12 13 15: 105 a.u.
2'F-ANA at 3 4 5 7 14: 61 a.u.
2'F-ANA at 2 3 4 5 9 11 12 15: 139 a.u.
2'F-ANA at 2 3 4 5 7 8 9 11 12: 174 a.u.
2'F-ANA at 4 5 6 10 11 12 14: 47.7 a.u.
2'F-ANA at 1 3 4 5 6 7 8 9 13 15: 55.3 a.u.

Series 2 — technique: protein-binding microarray; form: double-stranded DNA, one strand shown; sample: in vitro; tested at: 250 nM; notes: 60-bp whole probe; together with: salmon DNA 0.4 mg/ml; relative to: random background probes; reading: higher = stronger binding; measurement: log fluorescence; constant ends, left off below: GCCTAGCAC … GTCTTGATTCGCTTGACGCTGCTG
Target: Interferon regulatory factor 7, full length, phosphomimetic (IRF7, Homo sapiens, UniProt Q92985, residues 1-503, S101K/S471D/S472D/S475D/S476D/S477D/S483D/S484D/S487D)
Residues (chain): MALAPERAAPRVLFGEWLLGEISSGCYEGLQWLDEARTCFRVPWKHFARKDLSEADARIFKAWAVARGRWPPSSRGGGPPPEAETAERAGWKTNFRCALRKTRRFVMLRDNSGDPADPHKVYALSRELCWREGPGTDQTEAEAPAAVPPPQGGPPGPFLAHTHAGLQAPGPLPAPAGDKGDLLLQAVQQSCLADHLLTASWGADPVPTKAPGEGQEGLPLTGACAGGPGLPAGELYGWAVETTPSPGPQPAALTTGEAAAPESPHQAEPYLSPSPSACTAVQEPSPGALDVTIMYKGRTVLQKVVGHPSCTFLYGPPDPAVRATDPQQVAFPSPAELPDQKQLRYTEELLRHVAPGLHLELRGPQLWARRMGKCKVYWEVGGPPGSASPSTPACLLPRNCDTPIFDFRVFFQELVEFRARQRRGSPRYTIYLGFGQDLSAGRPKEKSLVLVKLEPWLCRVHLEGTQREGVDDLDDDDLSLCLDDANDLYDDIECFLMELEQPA
GATGGCAGTGGAAATTTTACGTGCTAG: -0.83 z-score
TTAGATCTCAGTGTCGATTAGTGCTAG: -0.0472 z-score
TACAATTTGCTTTAGTCATTGTGCTAG: 0.0794 z-score
GAAGAACTGAGTATCGAGACGTGCTAG: 0.00649 z-score
GACGGATTCCTTTTCCTGACGTGCTAG: 1.95 z-score
TTAGGTCTCCTTTTCCTTTCGTGCTAG: 2.12 z-score
GACCGTATCCTTCTCCTGACGTGCTAG: 0.767 z-score
GACGGTATCGGTACTGGGGACGTGCTA: 0.123 z-score
CATTATTTCAATGCAAGGTGGTGCTAG: 0.754 z-score
GACGTTTTCGGTATCGGGACGTGCTAG: 3.4 z-score
CAGATTTGGCATATCTATTTGTGCTAG: 0.432 z-score
TTAGGTTCCTGTTTCGGTTAGTGCTAG: 6.92 z-score
TTAGAACTGCGACTGGATTAGTGCTAG: -0.318 z-score
TTAGAAATGAGACTGGATTAGTGCTAG: -0.282 z-score
GACGAACTGAGTATCGCGACGTGCTAG: -0.129 z-score
TCACTAATAAATATGAGACTGTGCTAG: 0.141 z-score
TTACGTTCCGGTTTCGGTTAGTGCTAG: 9.55 z-score
GACGGTCTCCATATCCTGACGTGCTAG: 0.351 z-score
TTAGGTTTCCTACTGCTTTTGTGCTAG: 0.912 z-score
TTTTTTTTGTATTTTTGATAGTGCTAG: 0.582 z-score
GAGGGTATCGGACTGGGGACGTGCTAG: -0.604 z-score
TTAGGTATCGGTTTCGTTTAGTGCTAG: 11.3 z-score

Series 3 — target: NFE2L3, bZIP domain (human); technique: DHFR protein complementation; sample: yeast; relative to: wild-type JUN-FOS pair; reading: higher = stronger binding; measurement: binding fitness
Notes: single substitutions, most at no-binding floor
Starting sequence: JUN, bZIP domain (human); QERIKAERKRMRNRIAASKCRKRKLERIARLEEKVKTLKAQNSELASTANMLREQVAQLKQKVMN; partner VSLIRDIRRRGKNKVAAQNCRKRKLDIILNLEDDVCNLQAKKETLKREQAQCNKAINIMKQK
S47D: -1.38 natural log
A29I: -1.47 natural log
Q55W: -1.46 natural log
L31R: -1.52 natural log
S47N: -1.51 natural log
E44P: -1.49 natural log
A49Y: -1.35 natural log
A29V: -1.35 natural log
V56W: -1.39 natural log
A49S: -1.58 natural log
N42S: -1.52 natural log

Series 4 — technique: protein binding microarray; form: double-stranded DNA, one strand shown; sample: in vitro; tested at: not given; relative to: not given; reading: higher = stronger binding; measurement: E-score
Target: Histone acetyltransferase KAT6A, both winged helices, GST fusion (KAT6A, Homo sapiens, UniProt Q92794, residues 1-181)
Notes: 8-mer, flanks averaged, mean of 2 arrays, mostly near background
Construct (chain): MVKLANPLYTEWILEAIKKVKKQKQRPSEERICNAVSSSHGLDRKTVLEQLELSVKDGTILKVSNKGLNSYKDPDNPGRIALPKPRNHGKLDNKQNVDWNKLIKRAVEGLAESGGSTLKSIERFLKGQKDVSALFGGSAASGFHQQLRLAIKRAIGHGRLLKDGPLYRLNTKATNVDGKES
AGCGACTC: -0.0567
GCCCACGA: -0.195
ACTGTGCG: 0.177
AGACGATC: -0.0344
GGTCGAAC: -0.0148
AATGCACT: 0.0179
TAGCTAAA: -0.039
AACATGGG: -0.0337
CAGGCTCC: 0.00596
CCGAACTA: 0.0843
ACATCGAG: -0.179
GGGTTAAC: 0.112
CCTATGCA: -0.123
AAGTGGGA: -0.133
ACCTACAA: -0.0381
ATCTCGAG: -0.023
ATGTCCCA: -0.0998
CCACTCAG: -0.127
AACTCTGG: -0.186
CCGGGGTA: 0.116
ATTTAACC: -0.022
AGGCGCCG: 0.331
ACACAGCT: -0.253

Series 5 — technique: RNA Bind-n-Seq; form: RNA; sample: in vitro; tested at: not given; notes: RNA with constant flanks, ends assumed; relative to: input RNA pool; reading: higher = stronger binding; measurement: bound/input enrichment
Target: RING finger protein unkempt homolog, zinc fingers 1-6, GST-SBP tag (UNK, Homo sapiens, UniProt Q9C0B0, residues 30-357)
Constant ends, left off below: GGGAGUUCUACAGUCCGACGAUC … CAACAGAGGAUUGAGCAUCA
Construct (chain): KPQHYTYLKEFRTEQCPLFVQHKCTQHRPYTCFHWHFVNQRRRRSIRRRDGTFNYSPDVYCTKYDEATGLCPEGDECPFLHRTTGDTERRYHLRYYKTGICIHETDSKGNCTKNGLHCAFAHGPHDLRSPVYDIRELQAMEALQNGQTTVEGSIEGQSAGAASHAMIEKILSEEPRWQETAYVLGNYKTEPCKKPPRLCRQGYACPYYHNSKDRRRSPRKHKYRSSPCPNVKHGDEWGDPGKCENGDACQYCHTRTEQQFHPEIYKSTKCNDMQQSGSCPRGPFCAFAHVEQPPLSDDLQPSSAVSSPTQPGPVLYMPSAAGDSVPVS
ACAGUUUUCAAAAGUUCUUAAAGGCAAGAGUGAAUUUCUGUGGAUUUUACUGGUCCCAGCUUUCCGGUUCUUUAAGACACUAACAGGACUACAUAGAGGCUUUUUCAGCAUUACUGUGUC: 0.196 ratio
GACAGUGAAGAAGAGAUUAGAGAAGCAUUCCGUGUGUUUGAUAAGGAUGGCAAUGGCUAUAUCCGUGCAGCAGAGCUUCGCCAUGUGAUGACAAACCUUGGCGAGAAGUUAACAGAUGAA: 0.332 ratio
AUGGCAACAUCAGAAGCACUCAAGAUUUCCAGAGAGGUAGAUCCAGAUGGGCGCAGAACUCCCGCUGUAAUCACUAAACUUGAUCUCAUGGAUGCGGGUACUGAUGCCAUGGAUGUAUUG: 0.147 ratio
AACUAUUUUUCUUUGCUCAUGGGCUGGAUGGGAAUUACCCCUCCUCCAGUGCAAUGUCAUCACCGACUGUCCAUGACAGAUGAUAGCAAAAAGCAGGAUCUUAGUUCAUCUUUAACAGAU: 0.194 ratio
GAUGACAAUCCAUUUGCAGAGUACAUGUGGAUGGAAAAUGAAGAAGAAUUCAACAGACAAACCGAAGAGGAGUUAUGGGAAGAAGAAUUUAUUGAACGCUGUUUCCAAGAAAUGCUGGAA: 0.25 ratio
CAUAAUCACAAGUUUGAAAUAUCCUAUUUCUUAAAUAAAAAGGAGAACGUUAAUUACAUUCCGCAGACAUUUUUACAUUCAAAACUGGAUAUUGAAAUACGUGGAACAAUUGCUUUAAAU: 0.146 ratio
AUUAUUCAGGUUGAUAAAGCCUAUGACUACCUCGUUCAGAAUACAUCAUUUGCUAAUAAAUCCGGUUUUACUGUUACUGUUGGAAAUAACCGUGGCAUCUACCUCCGAGAUCCUGUUCAG: 0.0897 ratio

Series 6 — technique: DHFR PCA, deep sequencing; sample: yeast; together with: (+)-ABA 58 µM; relative to: wild-type fitted maximum; reading: higher = stronger binding; measurement: relative binding score
Target: ABI1, truncated, D143A, DHFR fusion (Arabidopsis thaliana)
Notes: methotrexate growth selection, single substitutions
Starting sequence: PYL1, truncated, DHFR fusion (Arabidopsis thaliana); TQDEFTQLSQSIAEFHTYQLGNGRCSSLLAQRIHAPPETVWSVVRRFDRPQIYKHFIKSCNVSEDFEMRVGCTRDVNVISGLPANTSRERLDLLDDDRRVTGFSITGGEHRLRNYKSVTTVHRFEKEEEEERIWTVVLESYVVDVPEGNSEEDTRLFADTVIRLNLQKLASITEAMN; partner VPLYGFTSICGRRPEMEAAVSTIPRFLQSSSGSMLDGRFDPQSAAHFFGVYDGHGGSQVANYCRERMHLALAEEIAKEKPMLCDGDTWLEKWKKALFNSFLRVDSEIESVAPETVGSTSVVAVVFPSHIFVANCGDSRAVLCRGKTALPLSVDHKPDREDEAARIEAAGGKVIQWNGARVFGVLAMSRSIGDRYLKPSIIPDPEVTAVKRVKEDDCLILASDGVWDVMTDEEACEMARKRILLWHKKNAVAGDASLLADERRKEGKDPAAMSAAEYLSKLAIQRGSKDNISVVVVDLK
V161I: 94.1%
R111M: 63%
L138H: 34.6%
V136C: 77.8%
D159Y: 10.7%
E64Y: 74.1%
E125S: 93.8%
S59R: 77.1%
E89S: 5.73%
T6I: 82.9%
H34F: 80.8%
T6N: 89.7%
A158H: 25.5%
D97F: 86.7%
E64S: 86.9%
T154V: 85.1%
R99I: 1.54%

Series 7 — target: CCNE1, cyclin fold, Cln2 fusion (human); technique: yeast growth competition, sequencing; sample: yeast; notes: weak parent motif; relative to: not given; reading: higher = stronger binding; measurement: normalised enrichment score
Starting sequence: RRM2 docking peptide (human); SKTARRIFQEPTE
E10A: 0.333
R6A: 0.242
T3A: 0.603
I7A: 0.0195
R5A: 0.0681
F8A: 0.0685

Further values, each from its own experiment
PhoQ, residues 284 288 289 292 302 303 WVSSAF
fold induction (PhoP, residues 12 14 15 18 19 IQFRS (Escherichia coli, UniProt P23836); Sort-seq, measured: YFP reporter; E. coli; PhoQ-PhoP variant library, together with: 10 µM Mg2+; relative to: high Mg2+ state, higher = stronger signaling): 5.07

Some of these lines once more (series 2):
GATGGCAGTGGAAATTTTACGTGCTAG: -0.83 z-score
TTAGGTTTCCTACTGCTTTTGTGCTAG: 0.912 z-score
GACGTTTTCGGTATCGGGACGTGCTAG: 3.4 z-score
TTAGATCTCAGTGTCGATTAGTGCTAG: -0.0472 z-score
TTAGGTATCGGTTTCGTTTAGTGCTAG: 11.3 z-score
